Assay results pooled from the literature.
Compare with care: the assays were run in different laboratories. Values joined by “and” are separate records of one study, mostly repeats; a detail may differ. ± gives the spread as reported.

C[C@]1(O)C[C@@](N)(c2ccc(-c3nc4n(c3-c3ccccc3)COc3ccncc3-4)cc2)C1  patients with Diarrhea TEAE (human, advanced or metastatic solid tumours; 28 mg intermittent, phase I dose escalation): 33.3%
CC(=O)c1c(C)c2cnc(Nc3ccc(C4CCN(CCS(C)(=O)=O)CC4)cn3)nc2n(C2CCCC2)c1=O  Cmax (human, dose-escalation trial, plasma; oral, 75 mg twice daily, day 1, single dose): 165 ng/mL
COc1cccc(Oc2ccccc2NC(=O)CNC(=O)c2cccc3ccccc23)c1  hematocrit (esterase-deficient SCID mice, male, blood; oral, 40 mg/kg/day, 14 days, toxicity study): 39% and 42.4% and 41%
[O-][S+]1CCc2nc(N3CCC(c4ncc(Cl)cn4)CC3)nc(NC3(CO)CCC3)c21 (centres unmarked)  adverse event incidence (refers to: Constipation; healthy male humans; single dose, all groups): 8.3%
CN1CC[C@@H](c2c(O)cc(O)c3c(=O)cc(-c4ccc(C(F)(F)F)cc4Cl)oc23)[C@@H]1CO  patients with adverse event (refers to: Dyspnea; B-cell malignancies; oral, 150 mg, intermittent dosing): 0%
O=S(=O)(Nc1ccccc1)c1ccc(NC(=S)Nc2ccccc2)cc1  relative organ weight (male mice, heart; oral, 20 mg/kg daily 14 days; baseline: body weight): 0.5%
CO[C@H]1C[C@@H]2CC[C@@H](C)[C@@](O)(O2)C(=O)C(=O)N2CCCC[C@H]2C(=O)O[C@H]([C@H](C)C[C@@H]2CC[C@@H](OC(=O)NCCOCCOCCOCCOCCOCCOCCOCCOCCC(=O)N3CCc4cc(Cn5nc(-c6ccc7oc(N)nc7c6)c6c(N)ncnc65)ccc4C3)[C@H](OC)C2)C[C@@H](O)[C@H](C)/C=C(\C)[C@@H](O)[C@@H](OC)C(=O)[C@H](C)C[C@H](C)/C=C/C=C/C=C/1C  TRAE incidence (phase 1 dose escalation, refers to: headache; advanced solid tumour patients; intravenous, 10 mg weekly, grade ≥3): 0%
CCS(=O)(=O)Nc1ccc(Oc2ccc(F)cc2F)c(-c2cn(C)c(=O)c3[nH]ccc23)c1  treatment-emergent adverse events (pulmonary alveolar hemorrhage, discontinuation; human, relapsed/refractory AML; oral, dose not given): 0%
C[C@@H](NC(=O)N1C(=O)[C@H](Cc2ccnc(N)c2)[C@H]1C(=O)O)C1CCCCC1  abnormal liver function leading to discontinuation (healthy adult Chinese volunteers; continuous intravenous infusion, 0.3 mg/kg/h, 5-day infusion, CTCAE 5.0 grading): 0%
N[C@@H]1c2ccccc2OC12CCN(c1cnc3c(N4CCCc5ncccc54)n[nH]c3n1)CC2  serious TEAE grade ≥3 (advanced solid tumour patients; oral, 100 mg once daily): 14.3%
COc1cc2c(Oc3ccc4[nH]c(C)cc4c3F)ccnc2cc1OCC1(N)CC1  grade 3 Hypothyroidism (paediatric recurrent refractory sarcoma; 12 mg): 0%
CN1CCN(S(=O)(=O)c2cc([N+](=O)[O-])ccc2N(CCOS(C)(=O)=O)CCOS(C)(=O)=O)CC1  concentration (NSG mice, brain; intraperitoneal, 5 mg/kg, 0.5 h): not detected
CCN1CCN(Cc2ccc(Nc3ncc(F)c(-c4cc(F)c5nc6n(c5c4)[C@H](C)CCC6)n3)nc2)CC1  dose-limiting toxicity rate (patients with advanced solid tumours; 500 mg, phase Ia monotherapy): 4.2%
C[C@H]1C[C@@H](N2C(=N)N[C@](C)(c3cccc(NC(=O)c4cccc(C#N)c4)c3Cl)CC2=O)CCO1  phosphorus change (rat; 500 mg/kg, every other day): -10%
C[C@@H]1NC(=O)[C@H](CCCCNC(=O)CO/N=C/C(=O)NCCCC[C@@H]2NC(=O)[C@@H](Cc3ccccc3)NC(=O)[C@H](CC(=O)O)NC(=O)CNC(=O)[C@H](CCCNC(=N)N)NC2=O)NC(=O)CNC(=O)[C@@H]2CCCN2C(=O)[C@H](CCCCNC(=O)CO/N=C/C(=O)NCCCC[C@@H]2NC(=O)[C@@H](Cc3ccccc3)NC(=O)[C@H](CC(=O)O)NC(=O)CNC(=O)[C@H](CCCNC(=N)N)NC2=O)NC(=O)[C@H](CCCCNC(=O)[C@H](CCCCN)NC(=O)[C@H](Cc2ccccc2)NC(=O)CNC(=O)CN2CCCNCCNCCCNCC2)NC(=O)[C@H](CCCCNC(=O)CO/N=C/C(=O)NCCCC[C@@H]2NC(=O)[C@@H](Cc3ccccc3)NC(=O)[C@H](CC(=O)O)NC(=O)CNC(=O)[C@H](CCCNC(=N)N)NC2=O)NC(=O)CNC(=O)[C@@H]2CCCN2C(=O)[C@H](CCCCNC(=O)CO/N=C/C(=O)NCCCC[C@@H]2NC(=O)[C@@H](Cc3ccccc3)NC(=O)[C@H](CC(=O)O)NC(=O)CNC(=O)[C@H](CCCNC(=N)N)NC2=O)NC1=O [copper-64 labelled]  tissue uptake (PET imaging; mouse, U-87 MG tumour xenograft, tumor; intravenous, 24 h): 1.45 ± 0.06 %ID/g
C=C(CN(C(=O)c1c(C(F)F)nn(C)c1F)C1CC1)c1ccc(Cl)cc1Cl  mortality (static acute toxicity test; zebrafish (Brachydanio rerio); 0.578 mg a.i./L, 24 h): 0%
O=C(c1ccc(F)c(F)c1Nc1ccc(I)cc1F)N1CC(O)([C@@H]2CCCCN2)C1  treatment-related adverse events (patients aged 6 to sample A years; oral, dose not given): 90%
[131I-].[Na+]  ischemic heart disease incidence (hyperthyroidism patients; 185 MBq, long-term follow-up): 0.4%
O=C1Nc2cc3[nH]nc(-c4ccncc4)c3cc2CN1Cc1ccccc1  patients with diarrhoea (CTCAE v4.03; advanced solid tumour patients; intravenous, 3.6 mg/kg, schedules 1/2): 33%
O=C(O)CCCOc1ccc(F)cc1-c1cc(-c2ccccc2C(F)(F)F)n(-c2ccccc2)n1  blood chemistry (refers to: CRE; Crl:CD(SD) rats, female, blood; iv, 25 µg/kg, 1 day): 0.36 ± 0.03 mg/dL
COc1ccnc(C(=O)N[C@H]2COC(=O)[C@H](Cc3ccccc3)[C@@H](OC(=O)C(C)C)[C@H](C)OC2=O)c1OCOC(=O)C(C)C  NOAEL (rat; oral, 90 day, highest dose tested): 732 mg/kg/day
COc1ccc(-c2c(-c3ccc(C#N)c(F)c3)nc(N3CCC(N)CC3)n(C)c2=O)cc1F  treatment-related adverse event incidence (refers to: Vomiting; human patients; oral, dose not given, grade 3 to 4, dose escalation, NG): 0%
O[C@H]1CCCN[C@@H]1CCCn1cnc2c(Cl)c(Cl)ccc21  AUCtau geometric LS mean (healthy volunteers, plasma; oral, 150 mg twice daily, alone): 1120 ng·h/mL
O=c1ccc2ncc(=O)n3c2n1C[C@H]3CN1CCC(NCc2cc3c(cn2)OCCC3)CC1  urine concentration (healthy human volunteers, urine; oral, dose not given, 24 h postdose, added: rifampicin): > 4 µg/mL
O=C(Nc1ccccc1)C1CCN(C(=O)Oc2cccnc2)CC1  adverse event Malaise (healthy women; oral, 100 mg, 9 days): 0%
CC[C@H](C)[C@H](NC(=O)[C@H](Cc1ccccc1)NC(=O)[C@H](CCC(=O)O)NC(=O)[C@H](CCCNC(=N)N)NC(=O)[C@H](C)NC(=O)[C@H](C)NC(=O)[C@H](CCC(N)=O)NC(=O)[C@H](CCC(=O)O)NC(=O)[C@H](CCC(=O)O)NC(=O)[C@H](CC(C)C)NC(=O)[C@H](Cc1ccc(O)cc1)NC(=O)[C@H](CO)NC(=O)[C@H](CO)NC(=O)[C@@H](NC(=O)[C@H](CC(=O)O)NC(=O)[C@H](CO)NC(=O)[C@@H](NC(=O)[C@H](Cc1ccccc1)NC(=O)[C@@H](NC(=O)CNC(=O)[C@H](CCC(=O)O)NC(=O)[C@H](C)NC(=O)CCc1cnc[nH]1)[C@@H](C)O)[C@@H](C)O)C(C)C)C(=O)N[C@@H](C)C(=O)N[C@@H](Cc1c[nH]c2ccccc12)C(=O)N[C@@H](CC(C)C)C(=O)N[C@H](C(=O)N[C@@H](CCCNC(=N)N)C(=O)NCC(=O)N[C@@H](CCCNC(=N)N)C(=O)N[C@@H](CCCCNC(=O)COCCOCCNC(=O)COCCOCCNC(=O)CC[C@H](NC(=O)CCCCCCCCCCCCCCCCC(=O)O)C(=O)O)C(=O)NCC(=O)NCC(=O)N[C@@H](CO)C(=O)N[C@@H](CCCCNC(=O)[C@H](CCCCNC(=O)[C@H](CCCCNc1c(NCCCCCN(O)C(=O)CCC(=O)NCCCCCN(O)C(=O)CCC(=O)NCCCCCN(O)C(C)=O)c(=O)c1=O)Nc1c(NCCCCCN(O)C(=O)CCC(=O)NCCCCCN(O)C(=O)CCC(=O)NCCCCCN(O)C(C)=O)c(=O)c1=O)NC(=O)[C@H](CCCCNc1c(NCCCCCN(O)C(=O)CCC(=O)NCCCCCN(O)C(=O)CCC(=O)NCCCCCN(O)C(C)=O)c(=O)c1=O)Nc1c(NCCCCCN(O)C(=O)CCC(=O)NCCCCCN(O)C(=O)CCC(=O)NCCCCCN(O)C(C)=O)c(=O)c1=O)C(=O)O)C(C)C [zirconium-89 labelled]  tissue uptake (ex vivo gamma counting; Sprague-Dawley rat, male, kidney; intravenous, 1 nmol, 24 h): 16.5 %ID/g and 17.1 %ID/g and 14.8 %ID/g and 16.9 %ID/g and 15.7 %ID/g
Clc1ccc(-c2ccccc2)cc1  phosphorus (Sprague-Dawley rats, female, serum; inhalation, 23 µg/rat, 1 h after exposure): 12 ± 2 mg/dL
NCCCC[C@@H]1NC(=O)[C@@H](Cc2c[nH]c3ccccc23)NC(=O)[C@H](c2ccccc2)NC(=O)[C@@H]2C[C@@H](OC(=O)NCCN)CN2C(=O)[C@H](Cc2ccccc2)NC(=O)[C@H](Cc2ccc(OCc3ccccc3)cc2)NC1=O  subjects with adverse event Nasopharyngitis (healthy human volunteers; 600 µg twice daily): 1%
CCN1[C@@H](C(=O)NC23CCC(C(=O)O)(CC2)CC3)[C@H](c2cccc(Cl)c2F)[C@]2(C(=O)Nc3cc(Cl)ccc32)C12CCCCC2  treatment-related adverse events (advanced solid tumour patients; oral, dose not given): 100%
CCc1ccc(CC/C=C/c2ccc3c(c2)C(=O)CC3)cc1  Phosphorus (Sprague-Dawley rat, male; oral, 120 mg/kg/day, 14 days): 3.23 mM
CC(C)C[C@H](NC(=O)[C@H](CCCCN)NC(=O)OCC1c2ccccc2-c2ccccc21)C(=O)N[C@H](C(=O)N[C@@H](Cc1ccccc1)C(=O)N[C@@H](Cc1ccccc1)C(=O)N[C@@H](CCCCN)C(=O)NCC(=O)N[C@@H](Cc1ccccc1)C(=O)N[C@@H](C)C(=O)N[C@@H](Cc1c[nH]c2ccccc12)C(=O)N[C@@H](CC(N)=O)C(=O)N[C@H](C(=O)N[C@H]1CSSC[C@@H](C(=O)N[C@@H](Cc2c[nH]cn2)C(=O)N[C@@H](CCCNC(=N)N)C(=O)N[C@@H](CCCNC(=N)N)C(=O)N[C@@H](C)C(=O)N[C@@H](CC(N)=O)C(N)=O)NC(=O)[C@H](C(C)C)NC(=O)[C@H](CCCNC(=N)N)NC(=O)[C@H](C(C)C)NC(=O)CNC(=O)[C@H](CC(N)=O)NC(=O)[C@H](CCCNC(=N)N)NC(=O)[C@H](Cc2ccc(O)cc2)NC(=O)[C@H](C(C)C)NC1=O)C(C)C)C(C)C  platelet distribution width (ICR mice, blood; intraductal mammary, 5 mg/kg, day 5): 15.8 ± 0.25%
COc1ncccc1-c1cnn2ccc(N3CCN(C(=O)OC(C)C)CC3)nc12  drug concentration (rat, CCI cold allodynia model, plasma; oral, 30 mg/kg, 240 min): 3500 nM
C[C@]1(CO)Cc2ncn(-c3ccc(C#N)c(Cl)c3)c2C(=O)O1  Cmax (human, plasma; 20 mg, first dose fasted): 728 nM
COc1ccc2nc3cc(Cl)ccc3c(Nc3cc(CN4CCCC4)c(O)c(CN4CCCC4)c3)c2n1  white blood cell count (mouse, blood; intraperitoneal, 14 mg/kg): 9.58 10⁹/L
O=c1oc2c(O)c(O)cc3c(=O)oc4c(O)c(O)cc1c4c23  liver weight (acute oral toxicity; BALB/c mice; oral, dose not given): 1.38 g

A few entries again:
C[C@@H](NC(=O)N1C(=O)[C@H](Cc2ccnc(N)c2)[C@H]1C(=O)O)C1CCCCC1  abnormal liver function leading to discontinuation (healthy adult Chinese volunteers; continuous intravenous infusion, 0.3 mg/kg/h, 5-day infusion, CTCAE 5.0 grading): 0%
N[C@@H]1c2ccccc2OC12CCN(c1cnc3c(N4CCCc5ncccc54)n[nH]c3n1)CC2  serious TEAE grade ≥3 (advanced solid tumour patients; oral, 100 mg once daily): 14.3%
COc1cc2c(Oc3ccc4[nH]c(C)cc4c3F)ccnc2cc1OCC1(N)CC1  grade 3 Hypothyroidism (paediatric recurrent refractory sarcoma; 12 mg): 0%
CN1CCN(S(=O)(=O)c2cc([N+](=O)[O-])ccc2N(CCOS(C)(=O)=O)CCOS(C)(=O)=O)CC1  concentration (NSG mice, brain; intraperitoneal, 5 mg/kg, 0.5 h): not detected
CCN1CCN(Cc2ccc(Nc3ncc(F)c(-c4cc(F)c5nc6n(c5c4)[C@H](C)CCC6)n3)nc2)CC1  dose-limiting toxicity rate (patients with advanced solid tumours; 500 mg, phase Ia monotherapy): 4.2%
